Measurements pooled from the literature.
Numbered parts are unrelated; each lists some results of a single study.
UniProt Q14289, sequence (whole entry, looked up): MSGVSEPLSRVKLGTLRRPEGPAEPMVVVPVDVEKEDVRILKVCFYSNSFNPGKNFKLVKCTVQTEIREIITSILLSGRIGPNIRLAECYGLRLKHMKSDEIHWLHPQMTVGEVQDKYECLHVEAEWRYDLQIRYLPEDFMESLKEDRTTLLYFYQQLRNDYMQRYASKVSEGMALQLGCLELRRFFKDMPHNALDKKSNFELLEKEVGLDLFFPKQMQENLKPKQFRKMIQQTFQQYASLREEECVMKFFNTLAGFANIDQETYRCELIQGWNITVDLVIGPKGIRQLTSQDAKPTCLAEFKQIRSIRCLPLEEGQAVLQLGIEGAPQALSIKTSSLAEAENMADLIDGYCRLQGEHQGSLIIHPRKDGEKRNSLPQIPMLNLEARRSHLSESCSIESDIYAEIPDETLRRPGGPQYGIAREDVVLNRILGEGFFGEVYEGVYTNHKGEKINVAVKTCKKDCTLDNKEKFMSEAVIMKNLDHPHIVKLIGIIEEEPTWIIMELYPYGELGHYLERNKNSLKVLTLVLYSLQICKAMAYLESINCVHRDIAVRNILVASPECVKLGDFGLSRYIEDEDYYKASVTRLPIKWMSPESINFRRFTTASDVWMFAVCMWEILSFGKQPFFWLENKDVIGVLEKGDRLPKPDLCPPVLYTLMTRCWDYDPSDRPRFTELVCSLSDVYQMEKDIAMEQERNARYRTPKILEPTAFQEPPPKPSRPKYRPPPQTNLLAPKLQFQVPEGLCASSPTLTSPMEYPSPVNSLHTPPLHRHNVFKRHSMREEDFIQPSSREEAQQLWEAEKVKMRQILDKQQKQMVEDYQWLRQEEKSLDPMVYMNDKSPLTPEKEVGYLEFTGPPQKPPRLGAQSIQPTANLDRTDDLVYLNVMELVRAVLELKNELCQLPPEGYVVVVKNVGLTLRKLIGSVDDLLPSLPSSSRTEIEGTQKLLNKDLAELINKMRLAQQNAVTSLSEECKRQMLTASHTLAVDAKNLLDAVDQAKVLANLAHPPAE
UniProt P29597, sequence (whole entry, looked up): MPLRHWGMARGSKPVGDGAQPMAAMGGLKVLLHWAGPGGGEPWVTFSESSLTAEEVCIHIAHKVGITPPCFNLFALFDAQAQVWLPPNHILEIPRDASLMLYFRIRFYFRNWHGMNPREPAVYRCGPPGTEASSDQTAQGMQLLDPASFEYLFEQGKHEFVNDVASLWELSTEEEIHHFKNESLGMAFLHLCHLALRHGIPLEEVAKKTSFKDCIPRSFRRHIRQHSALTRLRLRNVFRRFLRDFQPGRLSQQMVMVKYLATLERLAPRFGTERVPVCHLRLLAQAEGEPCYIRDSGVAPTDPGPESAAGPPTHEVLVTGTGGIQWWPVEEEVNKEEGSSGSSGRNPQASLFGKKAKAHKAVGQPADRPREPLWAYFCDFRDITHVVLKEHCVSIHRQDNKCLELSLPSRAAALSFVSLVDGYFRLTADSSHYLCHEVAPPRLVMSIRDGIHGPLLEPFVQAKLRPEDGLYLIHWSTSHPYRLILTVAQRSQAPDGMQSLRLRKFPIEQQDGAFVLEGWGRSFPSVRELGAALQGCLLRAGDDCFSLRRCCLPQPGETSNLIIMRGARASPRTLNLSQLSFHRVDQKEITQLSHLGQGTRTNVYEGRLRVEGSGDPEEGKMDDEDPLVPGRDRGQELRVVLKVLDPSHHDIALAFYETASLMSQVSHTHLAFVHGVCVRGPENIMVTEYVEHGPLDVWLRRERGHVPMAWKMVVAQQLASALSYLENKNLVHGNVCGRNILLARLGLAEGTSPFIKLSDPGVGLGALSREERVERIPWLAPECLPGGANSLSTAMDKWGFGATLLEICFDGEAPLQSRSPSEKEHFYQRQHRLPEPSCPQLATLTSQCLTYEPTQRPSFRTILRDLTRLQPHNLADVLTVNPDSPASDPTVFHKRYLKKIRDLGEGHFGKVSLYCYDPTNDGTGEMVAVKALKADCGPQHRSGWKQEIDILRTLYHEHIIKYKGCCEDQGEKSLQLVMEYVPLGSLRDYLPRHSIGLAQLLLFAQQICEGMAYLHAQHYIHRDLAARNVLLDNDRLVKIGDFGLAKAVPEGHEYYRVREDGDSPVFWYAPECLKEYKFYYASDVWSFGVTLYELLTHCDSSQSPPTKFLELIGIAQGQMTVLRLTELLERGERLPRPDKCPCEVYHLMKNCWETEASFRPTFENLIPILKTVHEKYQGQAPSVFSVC
UniProt P51817, sequence (whole entry, looked up): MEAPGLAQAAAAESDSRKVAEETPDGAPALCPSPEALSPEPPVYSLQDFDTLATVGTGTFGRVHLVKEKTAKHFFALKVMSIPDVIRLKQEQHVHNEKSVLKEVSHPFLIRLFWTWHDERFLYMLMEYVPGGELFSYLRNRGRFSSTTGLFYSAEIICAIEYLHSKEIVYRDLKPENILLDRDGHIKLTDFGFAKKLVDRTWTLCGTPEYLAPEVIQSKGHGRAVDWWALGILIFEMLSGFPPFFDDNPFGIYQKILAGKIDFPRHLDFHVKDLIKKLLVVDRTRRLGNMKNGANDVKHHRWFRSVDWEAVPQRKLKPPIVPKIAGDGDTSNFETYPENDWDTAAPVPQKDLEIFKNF
UniProt Q8NEB9, sequence (whole entry, looked up): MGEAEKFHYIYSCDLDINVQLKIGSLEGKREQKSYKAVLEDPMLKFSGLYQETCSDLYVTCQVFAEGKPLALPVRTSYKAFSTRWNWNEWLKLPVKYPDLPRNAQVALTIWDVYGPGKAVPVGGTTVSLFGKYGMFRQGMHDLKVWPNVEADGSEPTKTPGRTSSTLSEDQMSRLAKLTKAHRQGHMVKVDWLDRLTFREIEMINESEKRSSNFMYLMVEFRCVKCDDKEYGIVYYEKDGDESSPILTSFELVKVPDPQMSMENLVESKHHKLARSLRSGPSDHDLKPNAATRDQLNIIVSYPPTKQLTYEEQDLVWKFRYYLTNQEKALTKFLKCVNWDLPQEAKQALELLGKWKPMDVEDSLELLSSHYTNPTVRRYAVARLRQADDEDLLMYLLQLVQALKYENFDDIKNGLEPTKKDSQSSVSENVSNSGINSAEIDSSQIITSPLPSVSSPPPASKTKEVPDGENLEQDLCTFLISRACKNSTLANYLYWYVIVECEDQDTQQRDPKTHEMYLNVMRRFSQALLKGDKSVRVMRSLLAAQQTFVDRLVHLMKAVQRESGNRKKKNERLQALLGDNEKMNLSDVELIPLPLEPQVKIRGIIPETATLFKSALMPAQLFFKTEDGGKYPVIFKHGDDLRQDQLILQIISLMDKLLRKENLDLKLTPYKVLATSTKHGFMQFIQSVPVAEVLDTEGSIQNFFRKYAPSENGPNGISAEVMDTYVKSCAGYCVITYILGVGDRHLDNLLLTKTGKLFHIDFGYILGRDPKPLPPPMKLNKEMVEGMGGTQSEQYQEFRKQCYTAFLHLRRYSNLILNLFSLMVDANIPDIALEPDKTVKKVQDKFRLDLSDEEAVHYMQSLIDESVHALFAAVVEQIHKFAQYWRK
UniProt O75582, sequence (whole entry, looked up): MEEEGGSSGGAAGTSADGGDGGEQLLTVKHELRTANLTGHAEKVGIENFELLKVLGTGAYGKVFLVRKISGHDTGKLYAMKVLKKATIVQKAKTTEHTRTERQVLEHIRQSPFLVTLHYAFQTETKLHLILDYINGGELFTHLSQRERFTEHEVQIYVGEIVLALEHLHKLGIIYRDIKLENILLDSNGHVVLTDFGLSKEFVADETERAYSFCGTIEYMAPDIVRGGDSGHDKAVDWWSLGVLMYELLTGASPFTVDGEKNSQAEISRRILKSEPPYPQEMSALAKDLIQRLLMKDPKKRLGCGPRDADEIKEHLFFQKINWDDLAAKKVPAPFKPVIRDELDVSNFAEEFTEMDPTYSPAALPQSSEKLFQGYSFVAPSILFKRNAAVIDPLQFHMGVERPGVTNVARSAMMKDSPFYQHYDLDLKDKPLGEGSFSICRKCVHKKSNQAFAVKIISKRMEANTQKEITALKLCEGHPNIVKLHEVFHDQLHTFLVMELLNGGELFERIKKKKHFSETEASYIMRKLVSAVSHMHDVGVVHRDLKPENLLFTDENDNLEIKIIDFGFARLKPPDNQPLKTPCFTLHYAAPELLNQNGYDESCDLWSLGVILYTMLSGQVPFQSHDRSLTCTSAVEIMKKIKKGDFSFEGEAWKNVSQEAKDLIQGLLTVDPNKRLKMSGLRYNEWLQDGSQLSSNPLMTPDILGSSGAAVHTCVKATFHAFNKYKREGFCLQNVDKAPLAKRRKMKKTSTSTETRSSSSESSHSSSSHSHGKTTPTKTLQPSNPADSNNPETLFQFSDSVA
UniProt Q8TDX7, sequence (whole entry, looked up): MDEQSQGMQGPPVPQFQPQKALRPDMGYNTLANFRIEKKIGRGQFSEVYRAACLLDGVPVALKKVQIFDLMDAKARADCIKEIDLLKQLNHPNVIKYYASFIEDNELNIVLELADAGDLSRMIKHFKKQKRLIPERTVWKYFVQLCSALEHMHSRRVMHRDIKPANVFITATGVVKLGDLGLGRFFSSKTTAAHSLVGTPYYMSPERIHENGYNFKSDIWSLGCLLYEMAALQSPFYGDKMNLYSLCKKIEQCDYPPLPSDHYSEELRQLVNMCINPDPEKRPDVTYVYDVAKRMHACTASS

Series 1
SMILES: CO[C@@H]1[C@H](N(C)C(=O)c2ccccc2)C[C@H]2O[C@]1(C)n1c3ccccc3c3c4c(c5c6ccccc6n2c5c31)C(=O)NC4
Action: inhibitor
Tested at: 1 µM
target | effect on | inhibition [%]
PRKACB (Homo sapiens, UniProt P22694) | enzyme activity | 68
PTK2B (Homo sapiens, UniProt Q14289) | enzyme activity | 71
Ribosomal protein S6 kinase alpha-1, kinase domain 2 (RPS6KA1, Homo sapiens, UniProt Q15418) | – | 0
PTK6 (Homo sapiens, UniProt Q13882) | enzyme activity | 0
Ribosomal protein S6 kinase alpha-5, C-terminal kinase domain (RPS6KA5, Homo sapiens, UniProt O75582) | – | 17
IGF1R (Homo sapiens, UniProt P08069) | enzyme activity | 0
Non-receptor tyrosine-protein kinase TYK2, JH1 domain (TYK2, Homo sapiens, UniProt P29597) | – | 7

Series 2
Target: Calcium/calmodulin-dependent protein kinase type II subunit alpha (CAMK2A, Homo sapiens, UniProt Q9UQM7)
UniProt Q9UQM7, sequence (whole entry, looked up): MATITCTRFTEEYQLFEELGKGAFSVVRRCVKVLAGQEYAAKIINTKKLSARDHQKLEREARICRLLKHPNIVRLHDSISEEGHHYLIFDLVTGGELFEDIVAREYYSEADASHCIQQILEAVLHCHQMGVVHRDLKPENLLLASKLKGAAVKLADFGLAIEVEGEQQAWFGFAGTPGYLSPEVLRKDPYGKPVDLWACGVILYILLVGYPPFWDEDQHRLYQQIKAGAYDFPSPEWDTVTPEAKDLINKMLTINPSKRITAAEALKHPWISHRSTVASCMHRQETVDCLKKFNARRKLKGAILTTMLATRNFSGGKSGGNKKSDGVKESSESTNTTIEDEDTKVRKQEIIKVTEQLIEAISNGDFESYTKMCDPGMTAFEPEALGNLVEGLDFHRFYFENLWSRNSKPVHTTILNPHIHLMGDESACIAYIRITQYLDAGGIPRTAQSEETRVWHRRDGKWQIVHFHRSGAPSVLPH
Effect on: enzyme activity
Action: inhibitor
Tested at: 10 µM
SMILES | inhibition [%]
CC(=O)NCCCCCC(=O)O | -11
O[C@@H]1CO[C@H]2[C@@H]1OC[C@@H]2O | -11
Cc1[nH]cnc1CN1CCc2c(c3ccccc3n2C)C1=O | -8
N#CC(c1ccc(Cl)cc1)c1c(Cl)cc(-n2ncc(=O)[nH]c2=O)cc1Cl (stereo not shown) | -19
CC(C[N+](C)(C)C)OC(N)=O (stereo not shown) | -5
CC1(C)CC[C@]2(C)CC[C@]3(C)C(=CC[C@@H]4[C@@]5(C)CC[C@@H](O)[C@](C)(C(=O)O)[C@@H]5CC[C@]43C)[C@@H]2C1 | -18
O=C[C@H](O)[C@@H](O)[C@H](O[C@H]1O[C@H](CO)[C@@H](O[C@H]2O[C@H](CO)[C@@H](O)[C@H](O)[C@H]2O)[C@H](O)[C@H]1O)[C@H](O)CO | 5

Series 3
Cell line: Huh-7
Tested at: 10 µM
Time: 24 h
SMILES | viability [%]
NS(=O)(=O)c1cc2c(cc1Cl)N=C(CSCc1ccccc1)NS2(=O)=O | 97
COc1ccc(NS(=O)(=O)c2ccc(N)cc2)nn1 | 95.1
NCCc1c[nH]cn1 | 102
CCCCN(CCCC)CCCOC(=O)c1ccc(N)cc1 | 103
CC1=C(/C=C/C(C)=C/C=C/C(C)=C\C(=O)O)C(C)(C)CCC1 | 102
CN(C)CCc1c[nH]c2ccc(CS(=O)(=O)N3CCCC3)cc12 | 103
O=C(Nc1ccc(C(=O)O)c(O)c1)c1ccccc1 | 95.6

Series 4
Host: mouse
Medium: microsomes or S9
Tested at: 2 µM
Time: 0.5 h
Compound | remaining compound
O=C(NC1CCOCC1)N1CCC(CCc2ccc(O)cc2)CC1 | 93.3%
Cc1onc2c(=O)n(C)nc(C(=O)N3CCN(C)CC3C)c12 (stereo not shown) | 90.5%
CCc1ccc(S(=O)(=O)c2nnn3c2[nH]c(=O)c2sccc23)cc1 | 63.7%
CC(C)(C)OC(=O)CCc1nc(Cc2cccc3cccnc23)no1 | 0.752%
Cc1ccc(C(C)C)c(OCCNS(C)(=O)=O)c1 | 63.5%
CCOc1ccccc1CN1CCN(Cc2c[nH]c3nccnc23)C(C)C1 (stereo not shown) | 2.87%

Series 5
Structure (SMILES): CCC(=N\O)/C(C)=C/c1ccc(F)cc1
Effect on: cell-free assay
Technique: competition with immobilised ligand
Tested at: 1 µM
target | remaining binding [%]
NEK7 (Homo sapiens, UniProt Q8TDX7) | 85
PRKX (Homo sapiens, UniProt P51817) | 96
EGFR (Homo sapiens, UniProt P00533, G719C) | 64
MKNK1 (Homo sapiens, UniProt Q9BUB5) | 56
CLK2 (Homo sapiens, UniProt P49760) | 78
HIPK3 (Homo sapiens, UniProt Q9H422) | 78
PRKACB (Homo sapiens, UniProt P22694) | 89
LYN (Homo sapiens, UniProt P07948) | 87
GSK3A (Homo sapiens, UniProt P49840) | 100
PIK3C3 (Homo sapiens, UniProt Q8NEB9) | 83
PTK2 (Homo sapiens, UniProt Q05397) | 82
INSRR (Homo sapiens, UniProt P14616) | 83
Tyrosine-protein kinase ABL1, phosphorylated (ABL1, Homo sapiens, UniProt P00519, Y253F) | 80
FLT1 (Homo sapiens, UniProt P17948) | 87
LATS1 (Homo sapiens, UniProt O95835) | 100
FLT3 (Homo sapiens, UniProt P36888, ITD) | 94
FLT3 (Homo sapiens, UniProt P36888, N841I) | 74
PIP5K1A (Homo sapiens, UniProt Q99755) | 97
PTK2B (Homo sapiens, UniProt Q14289) | 99
ALK (Homo sapiens, UniProt Q9UM73, C1156Y) | 77
RIOK3 (Homo sapiens, UniProt O14730) | 78
TNNI3K (Homo sapiens, UniProt Q59H18) | 70
PKMYT1 (Homo sapiens, UniProt Q99640) | 100
RIPK2 (Homo sapiens, UniProt O43353) | 91
CSNK2A1 (Homo sapiens, UniProt P68400) | 74
